Results of several laboratories.
Parts stem from different laboratories: compare values within a part only. Positions count from the first letter of the parent shown.
Chain of UniProt Q9ZTX9 (whole entry, looked up): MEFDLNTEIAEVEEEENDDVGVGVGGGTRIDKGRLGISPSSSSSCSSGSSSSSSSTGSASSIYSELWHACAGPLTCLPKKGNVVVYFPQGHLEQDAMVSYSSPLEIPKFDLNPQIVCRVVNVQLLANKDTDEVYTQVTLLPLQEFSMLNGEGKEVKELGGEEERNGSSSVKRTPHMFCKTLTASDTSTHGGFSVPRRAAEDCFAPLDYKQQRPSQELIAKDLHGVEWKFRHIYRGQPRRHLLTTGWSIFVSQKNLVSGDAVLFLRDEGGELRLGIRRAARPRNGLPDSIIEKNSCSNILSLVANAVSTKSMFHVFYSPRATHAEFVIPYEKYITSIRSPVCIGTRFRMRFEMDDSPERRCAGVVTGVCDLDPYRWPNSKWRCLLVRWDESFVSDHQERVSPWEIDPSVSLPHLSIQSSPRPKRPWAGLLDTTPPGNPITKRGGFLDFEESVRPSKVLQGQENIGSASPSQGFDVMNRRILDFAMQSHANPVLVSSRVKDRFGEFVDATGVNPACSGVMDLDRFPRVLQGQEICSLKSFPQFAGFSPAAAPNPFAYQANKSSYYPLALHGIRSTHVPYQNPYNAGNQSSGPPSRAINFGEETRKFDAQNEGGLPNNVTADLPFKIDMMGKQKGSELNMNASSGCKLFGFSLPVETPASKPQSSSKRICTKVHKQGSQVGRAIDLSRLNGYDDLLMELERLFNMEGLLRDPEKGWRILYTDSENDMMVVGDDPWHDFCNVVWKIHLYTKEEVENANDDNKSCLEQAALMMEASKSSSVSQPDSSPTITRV
Chain of UniProt Q9FGV1 (whole entry, looked up): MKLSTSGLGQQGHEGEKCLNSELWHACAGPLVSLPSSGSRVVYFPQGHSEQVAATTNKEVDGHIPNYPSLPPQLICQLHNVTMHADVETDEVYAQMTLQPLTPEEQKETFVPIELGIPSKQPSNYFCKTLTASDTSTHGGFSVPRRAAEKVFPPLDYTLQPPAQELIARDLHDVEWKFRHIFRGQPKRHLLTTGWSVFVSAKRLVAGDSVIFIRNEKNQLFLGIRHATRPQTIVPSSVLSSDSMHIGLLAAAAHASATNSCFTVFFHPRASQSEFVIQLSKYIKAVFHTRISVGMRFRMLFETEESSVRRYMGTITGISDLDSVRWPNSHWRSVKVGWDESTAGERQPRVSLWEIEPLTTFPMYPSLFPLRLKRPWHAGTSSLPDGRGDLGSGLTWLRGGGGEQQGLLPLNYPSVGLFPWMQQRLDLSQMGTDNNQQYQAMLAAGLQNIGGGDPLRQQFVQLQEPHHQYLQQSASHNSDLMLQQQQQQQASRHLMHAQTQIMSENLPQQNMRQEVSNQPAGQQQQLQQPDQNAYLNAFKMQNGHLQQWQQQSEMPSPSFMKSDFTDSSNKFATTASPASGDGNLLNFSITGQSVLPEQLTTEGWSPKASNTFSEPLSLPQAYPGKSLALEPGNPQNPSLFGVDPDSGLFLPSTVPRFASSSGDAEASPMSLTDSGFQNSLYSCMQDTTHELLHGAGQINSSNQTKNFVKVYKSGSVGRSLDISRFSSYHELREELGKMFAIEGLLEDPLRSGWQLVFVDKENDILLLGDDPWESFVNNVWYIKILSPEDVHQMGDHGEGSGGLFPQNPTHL
Chain of UniProt Q9C5W9 (whole entry, looked up): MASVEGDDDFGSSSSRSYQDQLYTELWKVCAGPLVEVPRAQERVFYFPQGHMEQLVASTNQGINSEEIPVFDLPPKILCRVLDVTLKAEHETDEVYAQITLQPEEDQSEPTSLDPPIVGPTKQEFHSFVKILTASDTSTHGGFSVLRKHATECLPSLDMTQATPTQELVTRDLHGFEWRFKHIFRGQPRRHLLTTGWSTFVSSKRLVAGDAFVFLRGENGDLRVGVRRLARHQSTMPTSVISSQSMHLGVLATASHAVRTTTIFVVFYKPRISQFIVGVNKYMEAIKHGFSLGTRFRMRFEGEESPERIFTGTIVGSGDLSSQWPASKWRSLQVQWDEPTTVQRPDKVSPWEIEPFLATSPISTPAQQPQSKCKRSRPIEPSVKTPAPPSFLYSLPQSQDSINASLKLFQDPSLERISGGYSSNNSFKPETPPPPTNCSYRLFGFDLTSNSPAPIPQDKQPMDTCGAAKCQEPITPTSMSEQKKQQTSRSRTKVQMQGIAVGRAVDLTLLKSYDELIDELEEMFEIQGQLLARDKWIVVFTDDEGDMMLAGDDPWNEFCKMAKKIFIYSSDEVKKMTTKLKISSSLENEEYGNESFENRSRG
Chain of UniProt Q9ZPY6 (whole entry, looked up): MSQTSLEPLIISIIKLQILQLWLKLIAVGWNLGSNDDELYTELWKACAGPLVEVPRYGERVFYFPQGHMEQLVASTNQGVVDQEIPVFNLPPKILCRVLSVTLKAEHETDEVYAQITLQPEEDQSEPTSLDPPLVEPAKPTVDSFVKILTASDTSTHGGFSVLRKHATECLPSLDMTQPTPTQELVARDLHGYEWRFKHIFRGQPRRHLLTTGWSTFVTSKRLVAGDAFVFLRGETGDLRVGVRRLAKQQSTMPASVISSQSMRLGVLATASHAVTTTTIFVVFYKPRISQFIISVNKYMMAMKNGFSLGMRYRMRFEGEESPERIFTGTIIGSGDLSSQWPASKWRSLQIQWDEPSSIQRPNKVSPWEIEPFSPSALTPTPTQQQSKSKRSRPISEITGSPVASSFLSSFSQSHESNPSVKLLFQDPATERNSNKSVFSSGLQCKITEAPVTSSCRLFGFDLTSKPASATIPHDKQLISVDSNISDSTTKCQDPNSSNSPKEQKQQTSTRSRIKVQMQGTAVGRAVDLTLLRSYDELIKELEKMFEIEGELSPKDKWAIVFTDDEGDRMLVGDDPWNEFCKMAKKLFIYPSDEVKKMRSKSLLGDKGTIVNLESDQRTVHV
Chain of UniProt Q9M1R4 (whole entry, looked up): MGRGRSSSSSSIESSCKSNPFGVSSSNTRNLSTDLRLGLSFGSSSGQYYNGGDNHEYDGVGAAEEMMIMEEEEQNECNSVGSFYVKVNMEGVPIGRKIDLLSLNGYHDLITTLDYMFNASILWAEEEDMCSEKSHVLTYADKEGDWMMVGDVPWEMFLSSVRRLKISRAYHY
Chain of UniProt Q9FKM7 (whole entry, looked up): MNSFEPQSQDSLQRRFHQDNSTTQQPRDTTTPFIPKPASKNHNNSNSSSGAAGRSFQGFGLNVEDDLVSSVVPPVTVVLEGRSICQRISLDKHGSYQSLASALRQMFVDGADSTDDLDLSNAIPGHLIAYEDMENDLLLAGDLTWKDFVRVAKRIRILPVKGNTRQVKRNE

Study 1
Molecule: B1 (IAA14)
Method: two-hybrid
Reading: higher = firmer interaction
B1: IAA14 (Arabidopsis thaliana, UniProt Q38832); chain MNLKETELCLGLPGGTETVESPAKSGVGNKRGFSETVDLKLNLQSNKQGHVDLNTNGAPKEKTFLKDPSKPPAKAQVVGWPPVRNYRKNVMANQKSGEAEEAMSSGGGTVAFVKVSMDGAPYLRKVDLKMYTSYKDLSDALAKMFSSFTMGSYGAQGMIDFMNESKVMDLLNSSEYVPSYEDKDGDWMLVGDVPWPMFVESCKRLRIMKGSEAIGLAPRAMEKFKNRS
partner	setting	scale	positive tests
IAA33 (Arabidopsis thaliana, UniProt Q9FKM7)		reference: out of 4 tests	2
IAA30 (Arabidopsis thaliana, UniProt Q9M1R4)	weak activation fusion	reference: out of 2 tests	1
IAA17 (Arabidopsis thaliana, UniProt P93830)		reference: out of 4 tests	2
ARF11 500-622 (Arabidopsis thaliana, UniProt Q9ZPY6)		reference: out of 4 tests	1
ARF4 660-788 (Arabidopsis thaliana, UniProt Q9ZTX9)		reference: out of 4 tests	0
ARF8 699-811 (Arabidopsis thaliana, UniProt Q9FGV1)		reference: out of 2 tests	1
ARF18 482-602 (Arabidopsis thaliana, UniProt Q9C5W9)		reference: out of 4 tests	1

Study 2
Target: Sal-like protein 4, full length isoform B (SALL4, Homo sapiens, UniProt Q9UJQ4-2, residues 1-616)
Method: universal PBM
Molecule type: double-stranded DNA, one strand shown
Sample: in vitro
Concentration: not given
Setting: 8-mer, flanks averaged, mean of replicates
Reading: higher = stronger binding
Oligonucleotide	E-score
AGCAGTGG	-0.29
GTTCGCTA	0.0852
TAATTTGA	0.33
ATCGAAGA	0.239
GTGCCTCA	-0.221
GCAACTTA	0.0777
CCTGTAAA	0.0438
CACATTCC	0.0215
ACTGAGCT	-0.135
ACTGCAAC	-0.233
ACCTCGAT	-0.0787
ACTTGTCG	-0.088
CTGCTGTA	0.0163
TGGATACA	0.119
AGGGGGTA	-0.0586
CTTTCCAA	0.0167
GTTCAGCA	-0.115

Study 3
Target: Prothrombin, mature alpha-thrombin (F2, Homo sapiens, UniProt P00734)
Method: aptamer microarray, sandwich
Molecule type: DNA with 2'F-ANA
Sample: in vitro
Concentration: 200 nM
Setting: whole 15-mer aptamer, many near background
Together with: Cy3 exosite-II aptamer, 400 nM
Reading: higher = stronger binding
Oligonucleotide: GGTTGGTGTGGTTGG
Modification	mean fluorescence intensity [a.u.]
2'F-ANA at 1 2 3 5 7 8 9 12 14 15	49.5
2'F-ANA at 4 7 8 10 11 12 13 14 15	66.6
2'F-ANA at 1 2 4 8 9 10 11	47
2'F-ANA at 3 4 5 7 9 10 11 12	56.1
2'F-ANA at 1 2 4 5 7 8 11 13 14 15	46.1
2'F-ANA at 1 2 3 4 6 8 11 13 14	62.2
2'F-ANA at 1 3 4 6 7 10 11 12 13 15	104
2'F-ANA at 2 4 5 7 13	50.3
2'F-ANA at 3 5 7 8 10 13 14 15	70.1
2'F-ANA at 1 5 6 10 13 14 15	91.5
2'F-ANA at 3 9 10 11 12 15	550
2'F-ANA at 3 4 5 7 11 13 15	68.4
2'F-ANA at 1 3 7 12 13 14	132
2'F-ANA at 2 5 7 11 12	131
2'F-ANA at 1 3 4 6 11 13 14 15	60
2'F-ANA at 1 3 8 10 12 13 14	69.1

Study 4
Target: RNA binding protein fox-1 homolog 2, RRM domain, GST-SBP tag (RBFOX2, Homo sapiens, UniProt O43251-10, residues 100-194)
Method: RNA Bind-n-Seq
Molecule type: RNA
Sample: in vitro
Concentration: 365 nM
Setting: natural RNA segment, single round, ends assumed
Reference: no-protein control
Reading: higher = stronger binding
All sequences stand within: GGGAGUUCUACAGUCCGACGAUC … UGGAAUUCUCGGGUGCCAA
Residues (chain): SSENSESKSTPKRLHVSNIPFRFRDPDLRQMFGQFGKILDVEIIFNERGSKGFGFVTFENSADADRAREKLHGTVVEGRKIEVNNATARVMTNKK
Oligonucleotide	RBNS enrichment (R)
GUGAGUUCUCUCCUGACAGCUGUGAGCUCAGCUGGUGUGGGUGAGCCUUUCCUGCAGGAAGAGCCUCCCAAGGGAUGGCCAAAGAAGAGCAGGAUAGGCAAAGCUGUGGA	0.357
UGGGGCUCAGCCACAGCCUGACACAGUGCUCGACCUUGAUAGCAUGGGGCCCCUGGCCCAGAGUUGCUGUGCCGUGUCCAAGGGCCGUGCCCUUGCCCUUGGAGCUGCCG	15.7
AAAUGAACUUCAGGCUUGAUACAGAUCUUCUCCCUGUUGGUAUUACAUAUAUAGAGAUAAUUCUCAAUGCCUAAUUAAUAUACUUAUACAUUUGUUAAGGUAUGCGCAUA	0.278
AAGCUGUGCUAAAUGUUUUCUUCAAGGGAACCAGAUUUAGUUCUUUACAGAAUUUUCCAGUGAAAUAAAACAUGUUGUAAUAGCUGUGUUUGAGAUGAAAUAAGAGGUUG	0.369
AACACGUAUGAAGUUUAUGCUGAUGCAAAGAACUUGGGUUUUUAUGUUAAUAUAAAGUGUUGUUUUAGCAUGUGGCCAGAUGAUGCUCUGUCAUCUUUAGAAAGUGAGAU	8.19
AGAUAAAGCUAUUUUAUUCUGUAUUUUUAAAACUGUUCCGUACAAAUAAAAGCUCUCCUGGACACAGUUUGCUCUUCACGUGCCUCCUUCUUGGGCUACUCUUUAAGAAA	0.349
CUCCAAAGUAUUGUACAAAUAAGUGUGCAGUAUCUGUGAACUGAAUUCACCACAGACUUUAGCUUUCUGAGCAAGAGGAUUUUGCGUCAGAGAAAUGUCUGUCCAUUUUU	0.482
GUCACUCAAAAAUACCAGGUUUCCUGAAUAUGUUAUUAAGAAUUUCAGAUAUCCAAGCAGAAUUUUAUUAUGGACACCUUGUAAUGAAUUCAAAUCGUGUGACAGCAAAC	0.43
UAAACUGUAAGAUGAGCAGGAGAUGAUCACUGGGAGAGAAAGCAUACUGGAUUGAAGGAAGGGCUGUCUCCUUUUAACUUCUUGUUGAUAGUUGCAAGUUCUUUAUGCAC	0.681
UGUGUACACUGUUUGGUGCCCCUUCCCCACCAGUGCCUCCCUUCUCUUUCUUGGUUUCCAGAGGAACUGAGCCUGAGUGGGCUCUGCCAGUGCCUAGUGGAACUGUCCAC	0.519
AAAGAGGAAAGCUUACUUGUUUAAUGGCAGCCACAUGCACGAAGAUGCUAAGAAGAAAAAGAAUUCCAAAUCCUCAACUUUUGAGGUUUCGGCUCUCCAAUUUAACUCUU	1.76
UUCUUCCUGUUCACCCUGGUGGUGUAUGGGUGAGGUGGGAAGGUGACCCCCCCCCCAAAUAUAUAUCAGCCCAACAGCCCUAAGUCUCCUCCUUUAUUAUUAGGAAAACC	0.492

Study 5
Target: Centromere-binding protein 1, full length, N-terminal tag (CBF1, Saccharomyces cerevisiae, UniProt P17106, residues 1-351)
Chain of UniProt P17106 (whole entry, looked up): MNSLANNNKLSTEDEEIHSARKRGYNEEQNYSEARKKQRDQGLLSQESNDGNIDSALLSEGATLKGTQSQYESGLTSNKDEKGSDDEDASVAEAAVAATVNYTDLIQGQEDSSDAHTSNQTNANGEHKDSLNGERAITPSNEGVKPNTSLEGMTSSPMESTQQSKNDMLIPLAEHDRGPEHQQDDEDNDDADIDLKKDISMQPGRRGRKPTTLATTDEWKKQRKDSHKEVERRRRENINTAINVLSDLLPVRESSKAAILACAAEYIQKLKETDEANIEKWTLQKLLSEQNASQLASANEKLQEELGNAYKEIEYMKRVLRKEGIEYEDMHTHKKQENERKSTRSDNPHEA
Method: protein-binding microarray
Molecule type: double-stranded DNA, one strand shown
Sample: in vitro
Concentration: 0.8 µM
Setting: whole 60-bp probe, no competitor
Reading: higher = stronger binding
All sequences stand within: … GTCTTGATTCGCTTGACGCTGCTG
Oligonucleotide	fluorescence intensity
GAAGTCCTTTAATCTCAGCTGATATCGTCCTTCTAG	581 a.u.
GAATTATCTGTATGTCACGAGGCATTTTTCATTTAG	2030 a.u.
CTAGCGCTGAACTTTCACGTCAGATATATATACTTC	532 a.u.
CTACCACGATAAAAGCACGCGACCGAAAAGGCGTTC	1310 a.u.
GAATTCTATATACATGATGTATCGGAAGCTGTATAG	543 a.u.
GAACATTATACAAGCCTCCTGATAAACGTATCTTAG	552 a.u.
GAAATTTTCCAGCCACACGTGAAGTAAGCTGCATAG	1820 a.u.
GAAAGATTATTGCATCATGCAATGGGGTAATGTTAG	529 a.u.
CTAGGAGCTTTAAAACATCAGGATAGTGTGCAATTC	537 a.u.
CTAGCGCGGATGTGGCACATGCTGTTGAGATCTTTC	764 a.u.
GAATTTATGTAATTACGTGTGATACCTCCGATTTAG	509 a.u.
GAAACTCGCTGCCGTCAGGCAAACCACAGATGCTAG	512 a.u.
CTAAGAATGCTATATCTGATGATTAAAAATAGCTTC	549 a.u.
CTAGATTTTTTCGAACCCGTCAGGTGCAGGCTTTTC	1430 a.u.
CTATCCTACATAAATCATGTGACTTATTTATTTTTC	8760 a.u.
CTACAGAGCAAATATCACGTGCACAAAGAACTATTC	11800 a.u.
GAAAAGTTACATATACACGTTATACATGTATAGTAG	545 a.u.

Study 6
Target: CCNB1, cyclin fold, Cln2 fusion (human)
Method: yeast growth competition, sequencing
Sample: yeast
Setting: strong parent motif
Reference: not given
Reading: higher = stronger binding
Parent: PKMYT1 docking peptide (human); SFEPRNLLSLFED
Change	normalised enrichment score
N6A	0.995
S9G	0.803
L8H	0.4
E12C	1.03
N6V	0.114
F2A	0.145
S9K	1.28
F11N	-0.482
D13K	1.1
R5F	0.244
F11R	-0.624
F2D	0.385
F2K	-0.0422
P4I	0.39
L10R	0.233
F11L	1.45
S1E	1.32
S1A	1.69
L7S	-0.177
N6F	0.291
E3R	1.21
L7V	0.00212
P4R	1.11
P4C	0.566
P4H	0.0992

Some of these lines once more (study 3):
Modification	mean fluorescence intensity [a.u.]
2'F-ANA at 1 2 3 5 7 8 9 12 14 15	49.5
2'F-ANA at 4 7 8 10 11 12 13 14 15	66.6
2'F-ANA at 1 2 4 8 9 10 11	47
2'F-ANA at 3 4 5 7 9 10 11 12	56.1
2'F-ANA at 1 2 4 5 7 8 11 13 14 15	46.1
2'F-ANA at 1 2 3 4 6 8 11 13 14	62.2
2'F-ANA at 1 3 4 6 7 10 11 12 13 15	104
2'F-ANA at 2 4 5 7 13	50.3
2'F-ANA at 3 5 7 8 10 13 14 15	70.1
2'F-ANA at 1 5 6 10 13 14 15	91.5
2'F-ANA at 3 9 10 11 12 15	550
2'F-ANA at 3 4 5 7 11 13 15	68.4
2'F-ANA at 1 3 7 12 13 14	132
2'F-ANA at 2 5 7 11 12	131
